Measured values of several laboratories.
Each line is one published result; not all experiments were run side by side. Numbers after ± are the reported error.

SMILES	cell line	observed	mode	technique	time	notes	IC50
Cc1ccc2c(Br)cc(Br)c([O-])c2n1.Cc1ccc2c(Br)cc(Br)c([O-])c2n1.[Co+2].c1cnc2c(c1)ccc1cccnc12	HL-7702 normal hepatocytes	cell viability	–	MTT	48 h	–	63.5 ± 1.06 µM
CC[C@H](C)[C@H](NC(=O)C[C@H](CCCCN)NC(=O)[C@H](CCCCN)NC(=O)C[C@@H](NC(=O)[C@@H](NC(=O)C[C@H](CCCCN)NC(=O)[C@H](Cc1ccccc1)NC(=O)C[C@H](CC(C)C)NC(=O)CN)[C@@H](C)CC)[C@@H](C)CC)C(=O)N[C@@H](C)CC(=O)N[C@@H](CCCCN)C(=O)N[C@@H](CO)CC(=O)N[C@@H](Cc1ccccc1)C(N)=O	HUVEC	cytotoxicity	–	–	–	–	> 128 µg/mL
CCc1ccc(/N=C2\C(=O)N(Cc3ccc([N+](=O)[O-])cc3)c3ccccc32)cc1	L02	cell growth or viability	–	MTT	48 h	–	19.2 µM
CC(C)CCC[C@@H](C)[C@H]1CC[C@H]2[C@@H]3CC=C4C[C@@H](OC(=O)NCCCN(C)CCCNC(=O)c5cc6c(=O)c7cc(C(C)C)ccc7oc6nc5N)CC[C@]4(C)[C@H]3CC[C@]12C	ARPE-19	cytotoxicity	–	CCK-8	48 h	–	> 100 µM
Cc1[nH]c(=S)[nH]c(=O)c1/N=N/c1nnc(S)[nH]1	Vero	–	–	MTT	72 h	–	19.6 ± 2.65 µg/mL
CNS(=O)(=O)Nc1nccc(Cc2c(C)c3ccc(Oc4ncccc4F)cc3oc2=O)c1F	SKGT4	cell viability	–	–	7 days	–	> 1 µM
O=C1C(Cl)=C(Cl)C(=O)c2c1cccc2[N+](=O)[O-]	MOLT-3	cell growth or viability	–	XTT	–	–	79.8 µM
CC(C)c1cccc(C(C)C)c1N1C(=O)C2=Nc3ccccc3CN2C1=S	CCRF-CEM	cell growth or viability	–	resazurin	72 h	–	25.1 µM
CC(C)OC(=O)[C@H](CO)NCc1cc(Cl)c(OCc2cccc(-c3ccccc3)c2Br)cc1OCc1cccnc1	human PBMC	–	–	MTT	–	–	> 10 µM
COc1ccc(CC[C@H]2OC(=O)[C@@H]3CCCCN3C(=O)C(=O)C(C)(C)COC(=O)C=CCCN(C)C(=O)[C@H](CC(C)C)N(C)C(=O)[C@H]3CCCN3C(=O)[C@H](Cc3ccccc3)N(C)C(=O)[C@H](Cc3ccc(O)cc3)NC(=O)CCC(=O)Nc3cccc2c3)cc1OC	HUVEC	thymidine uptake	inhibitor	–	–	–	> 20 µM
C=CC(=O)N1CCCC(n2c(=O)c3ncccc3n(Cc3ccc(Oc4ccccc4)cc3)c2=O)C1 (centres unmarked)	L-428	cell growth or viability	–	MTT	72 h	–	20 µM
Clc1ccnc2c1ccc1c(Cl)ccnc12.[Co+2].[O-]c1c(I)cc(I)c2cccnc12.[O-]c1c(I)cc(I)c2cccnc12	HL-7702 normal hepatocytes	cell viability	–	MTT	48 h	–	64.6 ± 0.79 µM
O=[N+]([O-])c1ccc(C=NNC(Nc2ccccc2)=[S+][Au-][Cl])o1	IMR-90	cell growth or viability	–	resazurin	–	–	64.1 µM
CN(C)c1ccc(CCC(=O)N2C(=O)C3(NC(c4ccc(F)cc4)C4(C(=O)Nc5ccccc54)N3Cc3ccc(F)cc3)c3ccccc32)cc1 (centres unmarked)	L02	cell growth or viability	–	MTT	48 h	–	> 100 µM
CC1(C)CCC(CN2CCN(c3ccc(C(=O)NS(=O)(=O)c4ccc(NCC5CCOCC5)c([N+](=O)[O-])c4)c(Oc4cnc5[nH]ccc5c4)c3)CC2)=C(c2ccc(Cl)cc2)C1	RS4-11	annexin V positive cells	–	FACS	4 h	–	0.036 ± 0.01 µM
C[C@H](c1ccccc1)N1C(=O)C2=Nc3ccc(Cl)cc3CN2C1=S	CCRF-CEM	–	–	resazurin	72 h	–	0.38 ± 0.04 µM
Cc1ccc2c(Cl)cc(Cl)c([O-])c2n1.Cc1ccc2c(Cl)cc(Cl)c([O-])c2n1.[Co+2].c1ccc(-c2ccnc3c2ccc2c(-c4ccccc4)ccnc23)cc1	HL-7702 normal hepatocytes	cell viability	–	MTT	48 h	–	65.8 ± 1.77 µM
Cn1ncc(-c2ccc3c(=O)[nH]nc(CN)c3c2)c1-c1c(F)c(Cl)cc(OC2CC2)c1C#N	SR	cell viability	inhibitor	CellTiter-Glo	120 h	baseline-subtracted	0.05 µM
Cc1ccc([N+](=O)[O-])cc1S(=O)(=O)N(C)/N=C/c1cnc2ccc(Br)cn12	SR	cell growth or viability	–	–	–	–	< 0.001 µM
CC1(C)[C@H](NC(=O)c2cnn(CCO)c2)C(C)(C)[C@H]1Oc1ccc(C#N)c(Cl)c1	MDA-MB-453	cell growth or viability	–	CCK-8	7 days	–	0.91 µM
CC[C@@H](C)N1C(=O)C2=Nc3ccccc3CN2C1=S	CCRF-CEM	cell viability	–	resazurin	72 h	–	inactive
CC[C@H](C)[C@H](NC(=O)C[C@H](CCCCN)NC(=O)[C@H](Cc1ccccc1)NC(=O)C[C@H](CC(C)C)NC(=O)CN)C(=O)N[C@H](C(=O)N[C@@H](CCCCN)CC(=O)N[C@@H](CCCCN)C(=O)N[C@H](CC(=O)N[C@@H](CC(C)C)C(=O)N[C@@H](CCCCN)CC(=O)N[C@@H](CC(C)C)C(=O)N[C@@H](Cc1ccccc1)C(N)=O)[C@@H](C)CC)[C@@H](C)CC	HUVEC	cytotoxicity	–	–	–	–	14.3 µg/mL

SMILES	cell line	observed	mode	technique	time	notes	IC50
COc1ccccc1/C=C1\C(=O)N(C)c2ccc(Nc3nc(C)nc4ccccc34)cc21	H22	cell growth or viability	–	MTT	–	–	4.97 µM
COc1ccc(CC[C@H]2OC(=O)[C@@H]3CCCCN3C(=O)C(=O)C(C)(C)COC(=O)C=CCCN(C)C(=O)[C@H](CC(C)C)N(C)C(=O)[C@H]3CCCN3C(=O)[C@H](CCc3ccccc3)NC(=O)[C@H](c3ccccc3)NC(=O)CCC(=O)Nc3cccc2c3)cc1OC	HUVEC	thymidine uptake	inhibitor	–	–	–	0.015 ± 0.002 µM
CN1CCC(N[C@H]2CCc3[nH]c4c(C(N)=O)ccc(-c5ccccc5Cl)c4c3C2)CC1	HGC-27	cell growth or viability	–	–	–	–	1.29 µM
COc1ccc(CC[C@H]2OC(=O)[C@@H]3CCCCN3C(=O)C(=O)C(C)(C)COC(=O)C=CCCN(C)C(=O)[C@H](CC(C)C)N(C)C(=O)[C@H]3CCCN3C(=O)[C@H](Cc3ccc(I)cc3)NC(=O)[C@H](c3ccccc3)NC(=O)CCC(=O)Nc3cccc2c3)cc1OC	HUVEC	thymidine uptake	inhibitor	–	–	–	0.063 ± 0.017 µM
CCOc1cncc(-c2ccc(NC(=O)C3(c4ccnc(NS(=O)(=O)C5CC5)n4)CCOCC3)nc2)n1	MOLT-3	cell growth or viability	–	ATP luminescence	72 h	–	0.017 µM
N#Cc1c(N)nc2c(c1-c1ccc[nH]1)Cc1cc(O)ccc1-2	HuT78	cell growth or viability	–	ATP luminescence	–	–	0.6 µM
CC(C)c1ccc(N(C)c2ccc3c(c2)OCC[C@H]3CNc2cnccc2C(=O)O)cc1	MDA-MB-453	cell growth or viability	–	ATP luminescence	7 days	–	0.0104 µM
COc1ccc(CC[C@H]2OC(=O)[C@@H]3CCCCN3C(=O)C(=O)C(C)(C)COC(=O)C=CCCN(C)C(=O)[C@H](Cc3ccccc3)NC(=O)[C@@H](Cc3ccccc3)N(C)C(=O)[C@H]3CCCN3C(=O)[C@@H](CC(C)C)N(C)C(=O)CCC(=O)Nc3cccc2c3)cc1OC	HUVEC	thymidine uptake	inhibitor	–	–	–	> 20 µM
N#Cc1c(N)nc2c(c1-c1ccc(CO)o1)Cc1cccc(O)c1-2	HuT78	cell growth or viability	–	ATP luminescence	–	–	20.9 µM
Cc1ccc(CN2C3(NC(c4ccc(C)cc4)C24C(=O)Nc2ccccc24)C(=O)Nc2ccccc23)cc1 (centres unmarked)	L02	cell growth or viability	–	MTT	48 h	–	35.7 µM
CCC[C@@H]1NC(=O)[C@@H](Cc2ccccc2)N(C)C(=O)[C@@H]2CCCN2C(=O)[C@H](CC(C)C)N(C)C(=O)CCC(=O)Nc2cccc(c2)[C@@H](CCc2ccc(OC)c(OC)c2)OC(=O)[C@@H]2CCCCN2C(=O)C(=O)C(C)(C)COC(=O)C=CCCN(C)C1=O	HUVEC	thymidine uptake	inhibitor	–	–	–	1.1 ± 0.2 µM
CCN(CC)c1ccc2nc3ccc(NCCCN(C)CCCNC(=O)O[C@H]4CC[C@@]5(C)C(=CC[C@H]6[C@@H]7CC[C@H]([C@H](C)CCCC(C)C)[C@@]7(C)CC[C@@H]65)C4)cc3[n+](-c3ccccc3)c2c1	ARPE-19	cytotoxicity	–	CCK-8	48 h	–	1.69 ± 0.32 µM
C[C@@H](c1cccc2ccccc12)N1C(=O)C2=Nc3ccccc3CN2C1=S	CCRF-CEM	cell growth or viability	–	resazurin	72 h	–	0.191 µM
COc1ccc(CC[C@H]2OC(=O)[C@@H]3CCCCN3C(=O)C(=O)C(C)(C)COC(=O)C=CCCN(C)C(=O)[C@H](Cc3ccccc3)N(C)C(=O)[C@H]3CCCN3C(=O)[C@H](Cc3ccccc3)N(C)C(=O)[C@H](Cc3ccccc3)NC(=O)CCC(=O)Nc3cccc2c3)cc1OC	HUVEC	thymidine uptake	inhibitor	–	–	–	> 20 µM
C[OH+][Cu-2]12[O]C(c3cn(-c4ccccc4)nc3-c3ccc(Cl)cc3)=N[N+]1=C(C)c1c(cc(C)oc1=O)[O]2 (centres unmarked)	Vero	cell growth or viability	–	MTT	48 h	–	93.1 µM
C[C@@H](c1ccccc1)N1C(=O)C2=Nc3ccccc3CN2C1=S	CCRF-CEM	–	–	resazurin	72 h	–	0.48 ± 0.03 µM
Cc1cnc2nc1Nc1cccc(c1)COCc1cc(ccc1OCCN1CCOCC1)N2	HEL 92.1.7 JAK2 V617F	cell growth	–	CCK-8	–	–	6.21 µM
COc1ccc(CC[C@H]2OC(=O)[C@@H]3CCCCN3C(=O)C(=O)C(C)(C)COC(=O)C=CCCN(C)C(=O)[C@@H](CC(C)C)N(C)C(=O)[C@H]3CCCN3C(=O)[C@H](Cc3ccccc3)N(C)C(=O)[C@H](Cc3ccccc3)NC(=O)CCC(=O)Nc3cccc2c3)cc1OC	HUVEC	thymidine uptake	inhibitor	–	–	–	1.3 ± 0.3 µM
O=C(CCCCCONC(=O)c1nc(-c2ccc([N+](=O)[O-])cc2)cs1)NO	neonatal foreskin fibroblasts	cytotoxicity	–	sulforhodamine B	72 h	–	3.52 µM
COc1ccc(CC[C@H]2OC(=O)[C@@H]3CCCCN3C(=O)C(=O)C(C)(C)COC(=O)C=CCCN(C)C(=O)[C@@H]3CCCN3C(=O)[C@@H](Cc3ccccc3)N(C)C(=O)[C@@H]3CCCN3C(=O)[C@H](CC(C)C)N(C)C(=O)CCC(=O)Nc3cccc2c3)cc1OC	HUVEC	thymidine uptake	inhibitor	–	–	–	5.8 ± 0.9 µM
O=C(CCCCCONC(=O)c1nc(-c2ccc(O)cc2)cs1)NO	neonatal foreskin fibroblasts	cytotoxicity	–	sulforhodamine B	72 h	–	5.14 µM
Cc1nc(N(C)c2ccc3c(c2)/C(=C/c2cn(C)c4ccccc24)C(=O)N3C)c2ccccc2n1	H22	cell growth or viability	–	MTT	–	–	12.8 µM
